Measurements of several laboratories.
Each numbered part is a random draw from the data of one study; scales do not carry over between parts. Positions count from the first letter of the parent shown.
UniProt P10721, sequence (whole entry, unmodified, looked up): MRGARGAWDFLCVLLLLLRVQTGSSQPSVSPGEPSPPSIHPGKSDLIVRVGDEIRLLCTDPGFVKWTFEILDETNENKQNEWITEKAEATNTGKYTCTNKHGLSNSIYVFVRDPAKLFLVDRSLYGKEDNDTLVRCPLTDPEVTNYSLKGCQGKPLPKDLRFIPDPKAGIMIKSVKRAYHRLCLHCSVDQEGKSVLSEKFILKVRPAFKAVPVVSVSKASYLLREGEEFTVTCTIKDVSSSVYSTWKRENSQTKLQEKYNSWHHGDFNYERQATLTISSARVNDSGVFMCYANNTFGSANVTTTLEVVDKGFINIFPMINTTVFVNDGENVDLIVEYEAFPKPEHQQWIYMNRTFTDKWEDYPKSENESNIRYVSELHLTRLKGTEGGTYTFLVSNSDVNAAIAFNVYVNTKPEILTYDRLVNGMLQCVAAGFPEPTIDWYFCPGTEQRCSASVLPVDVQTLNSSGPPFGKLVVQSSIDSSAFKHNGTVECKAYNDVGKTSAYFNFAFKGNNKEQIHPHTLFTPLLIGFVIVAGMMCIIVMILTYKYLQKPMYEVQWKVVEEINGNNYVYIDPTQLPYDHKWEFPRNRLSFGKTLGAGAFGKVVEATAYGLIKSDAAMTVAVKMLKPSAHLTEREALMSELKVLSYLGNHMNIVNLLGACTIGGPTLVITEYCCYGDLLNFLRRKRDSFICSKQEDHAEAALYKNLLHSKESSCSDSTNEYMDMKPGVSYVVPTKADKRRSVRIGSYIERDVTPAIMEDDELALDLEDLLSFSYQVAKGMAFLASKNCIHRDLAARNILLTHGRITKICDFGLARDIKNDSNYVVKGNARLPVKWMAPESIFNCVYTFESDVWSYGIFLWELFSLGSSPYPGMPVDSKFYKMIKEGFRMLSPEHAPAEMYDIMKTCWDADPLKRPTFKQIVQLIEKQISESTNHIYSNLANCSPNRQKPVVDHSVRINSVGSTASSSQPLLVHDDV
UniProt Q02779, sequence (whole entry, looked up): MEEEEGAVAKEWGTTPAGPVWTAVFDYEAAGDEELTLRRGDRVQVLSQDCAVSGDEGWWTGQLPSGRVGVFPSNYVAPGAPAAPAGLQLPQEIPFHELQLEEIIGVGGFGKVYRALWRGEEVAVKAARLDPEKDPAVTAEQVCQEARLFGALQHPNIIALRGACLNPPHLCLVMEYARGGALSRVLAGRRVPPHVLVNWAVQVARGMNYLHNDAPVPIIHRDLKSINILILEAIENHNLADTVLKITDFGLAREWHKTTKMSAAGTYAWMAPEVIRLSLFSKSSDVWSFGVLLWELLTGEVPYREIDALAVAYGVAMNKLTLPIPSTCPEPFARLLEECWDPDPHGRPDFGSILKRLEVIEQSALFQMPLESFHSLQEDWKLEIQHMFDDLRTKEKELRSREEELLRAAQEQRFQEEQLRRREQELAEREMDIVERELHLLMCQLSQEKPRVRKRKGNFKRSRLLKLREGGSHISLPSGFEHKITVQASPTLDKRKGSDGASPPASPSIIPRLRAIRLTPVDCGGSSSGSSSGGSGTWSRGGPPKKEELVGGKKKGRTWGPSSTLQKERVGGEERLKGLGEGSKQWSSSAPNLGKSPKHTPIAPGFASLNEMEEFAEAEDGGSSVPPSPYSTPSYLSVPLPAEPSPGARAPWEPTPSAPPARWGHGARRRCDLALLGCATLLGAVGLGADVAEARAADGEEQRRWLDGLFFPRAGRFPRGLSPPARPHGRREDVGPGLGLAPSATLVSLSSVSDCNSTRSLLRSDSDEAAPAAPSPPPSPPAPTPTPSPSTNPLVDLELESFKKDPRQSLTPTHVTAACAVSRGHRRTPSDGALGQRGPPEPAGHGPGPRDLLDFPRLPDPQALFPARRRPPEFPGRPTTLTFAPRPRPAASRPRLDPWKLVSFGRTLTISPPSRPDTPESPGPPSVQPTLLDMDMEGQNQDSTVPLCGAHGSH
UniProt P35968, sequence (whole entry, looked up): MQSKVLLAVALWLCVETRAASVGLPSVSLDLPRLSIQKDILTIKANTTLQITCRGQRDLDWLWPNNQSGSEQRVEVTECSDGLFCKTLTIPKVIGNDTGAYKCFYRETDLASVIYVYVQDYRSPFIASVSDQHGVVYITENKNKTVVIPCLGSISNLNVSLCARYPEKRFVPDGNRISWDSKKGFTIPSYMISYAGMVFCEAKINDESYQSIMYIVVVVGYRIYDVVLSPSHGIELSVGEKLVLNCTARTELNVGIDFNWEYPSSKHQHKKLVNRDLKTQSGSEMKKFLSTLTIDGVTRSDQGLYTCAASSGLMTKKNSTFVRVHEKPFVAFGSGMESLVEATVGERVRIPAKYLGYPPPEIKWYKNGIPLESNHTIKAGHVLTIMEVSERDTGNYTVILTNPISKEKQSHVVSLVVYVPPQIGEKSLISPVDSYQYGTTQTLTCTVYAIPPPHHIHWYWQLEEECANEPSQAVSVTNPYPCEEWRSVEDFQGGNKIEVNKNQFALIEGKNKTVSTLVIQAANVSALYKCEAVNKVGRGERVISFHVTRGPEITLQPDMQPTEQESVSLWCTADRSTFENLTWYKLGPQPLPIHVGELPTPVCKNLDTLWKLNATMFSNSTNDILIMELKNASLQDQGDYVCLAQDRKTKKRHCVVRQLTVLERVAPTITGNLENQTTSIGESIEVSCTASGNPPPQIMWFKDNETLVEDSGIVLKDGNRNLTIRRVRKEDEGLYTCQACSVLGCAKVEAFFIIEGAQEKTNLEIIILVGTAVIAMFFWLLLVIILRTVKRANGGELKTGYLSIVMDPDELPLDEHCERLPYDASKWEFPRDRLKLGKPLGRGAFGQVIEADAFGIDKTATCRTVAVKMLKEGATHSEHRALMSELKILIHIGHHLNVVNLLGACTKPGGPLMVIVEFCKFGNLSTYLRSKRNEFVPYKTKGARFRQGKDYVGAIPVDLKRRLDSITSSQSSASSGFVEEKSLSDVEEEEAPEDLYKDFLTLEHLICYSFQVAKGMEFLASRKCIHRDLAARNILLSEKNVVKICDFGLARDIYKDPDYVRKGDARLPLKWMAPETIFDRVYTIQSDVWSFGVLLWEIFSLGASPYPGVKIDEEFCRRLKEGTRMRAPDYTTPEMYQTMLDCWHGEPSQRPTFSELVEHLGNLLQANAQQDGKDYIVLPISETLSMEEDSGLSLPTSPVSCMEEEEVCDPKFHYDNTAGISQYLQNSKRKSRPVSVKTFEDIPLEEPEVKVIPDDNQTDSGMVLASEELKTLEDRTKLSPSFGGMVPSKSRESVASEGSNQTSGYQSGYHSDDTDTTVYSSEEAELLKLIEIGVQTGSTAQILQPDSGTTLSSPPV
UniProt P27448, sequence (whole entry, looked up): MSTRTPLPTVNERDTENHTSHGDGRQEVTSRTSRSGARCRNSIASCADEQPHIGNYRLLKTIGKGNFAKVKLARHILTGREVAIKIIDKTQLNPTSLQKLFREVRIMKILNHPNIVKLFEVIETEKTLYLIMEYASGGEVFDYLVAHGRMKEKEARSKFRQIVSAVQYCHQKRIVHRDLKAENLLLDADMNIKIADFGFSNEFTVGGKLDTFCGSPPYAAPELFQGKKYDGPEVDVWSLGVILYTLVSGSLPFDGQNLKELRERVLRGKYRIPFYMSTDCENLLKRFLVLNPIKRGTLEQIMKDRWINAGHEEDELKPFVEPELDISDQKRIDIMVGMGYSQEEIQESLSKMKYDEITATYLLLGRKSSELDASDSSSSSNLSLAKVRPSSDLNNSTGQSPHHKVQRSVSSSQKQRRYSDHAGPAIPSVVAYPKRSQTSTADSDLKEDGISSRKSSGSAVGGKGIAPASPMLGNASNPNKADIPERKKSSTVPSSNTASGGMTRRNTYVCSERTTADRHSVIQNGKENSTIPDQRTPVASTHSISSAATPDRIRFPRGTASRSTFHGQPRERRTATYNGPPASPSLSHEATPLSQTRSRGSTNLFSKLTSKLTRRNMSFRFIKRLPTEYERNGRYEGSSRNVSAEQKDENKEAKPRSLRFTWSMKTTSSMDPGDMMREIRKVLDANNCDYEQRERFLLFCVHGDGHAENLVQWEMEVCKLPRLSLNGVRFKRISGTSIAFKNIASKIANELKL
UniProt O43353, sequence (whole entry, looked up): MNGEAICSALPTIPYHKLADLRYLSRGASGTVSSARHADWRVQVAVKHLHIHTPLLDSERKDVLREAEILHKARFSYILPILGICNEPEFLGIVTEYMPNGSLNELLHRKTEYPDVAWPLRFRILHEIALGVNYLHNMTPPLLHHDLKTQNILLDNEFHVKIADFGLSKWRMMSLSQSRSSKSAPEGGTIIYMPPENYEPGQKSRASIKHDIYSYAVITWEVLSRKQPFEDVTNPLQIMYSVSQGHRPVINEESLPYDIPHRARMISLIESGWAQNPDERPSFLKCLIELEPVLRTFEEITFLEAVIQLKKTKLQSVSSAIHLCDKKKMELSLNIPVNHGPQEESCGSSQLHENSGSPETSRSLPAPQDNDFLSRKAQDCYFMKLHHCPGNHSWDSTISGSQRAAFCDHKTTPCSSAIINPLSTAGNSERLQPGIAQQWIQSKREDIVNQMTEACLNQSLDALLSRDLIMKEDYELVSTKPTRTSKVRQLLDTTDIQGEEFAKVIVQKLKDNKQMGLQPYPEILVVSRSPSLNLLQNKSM
UniProt Q9M1R4, sequence (whole entry, looked up): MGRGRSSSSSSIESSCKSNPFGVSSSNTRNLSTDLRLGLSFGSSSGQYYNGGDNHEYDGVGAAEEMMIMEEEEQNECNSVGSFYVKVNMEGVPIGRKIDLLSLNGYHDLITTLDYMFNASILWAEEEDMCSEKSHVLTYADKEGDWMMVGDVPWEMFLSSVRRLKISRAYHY
UniProt Q8LAL2, sequence (whole entry, looked up): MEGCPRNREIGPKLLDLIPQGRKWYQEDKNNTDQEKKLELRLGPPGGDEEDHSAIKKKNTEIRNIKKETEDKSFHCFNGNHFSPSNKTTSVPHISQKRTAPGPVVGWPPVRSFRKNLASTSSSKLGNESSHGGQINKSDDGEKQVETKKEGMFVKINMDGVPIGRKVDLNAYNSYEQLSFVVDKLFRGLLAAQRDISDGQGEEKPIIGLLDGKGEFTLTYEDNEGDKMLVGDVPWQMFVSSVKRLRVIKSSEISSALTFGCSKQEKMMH

Study 1
Molecule: B1 (IAA16)
Method: two-hybrid
Reading: higher = firmer interaction
B1: IAA16 (Arabidopsis thaliana, UniProt O24407); chain MINFEATELRLGLPGGNHGGEMAGKNNGKRGFSETVDLKLNLSSTAMDSVSKVDLENMKEKVVKPPAKAQVVGWPPVRSFRKNVMSGQKPTTGDATEGNDKTSGSSGATSSASACATVAYVKVSMDGAPYLRKIDLKLYKTYQDLSNALSKMFSSFTIGNYGPQGMKDFMNESKLIDLLNGSDYVPTYEDKDGDWMLVGDVPWEMFVDSCKRIRIMKGSEAIGLAPRALEKCKNRS
| partner | notes | baseline | positive tests |
| --- | --- | --- | --- |
| ARF1 538-665 (Arabidopsis thaliana, UniProt Q8L7G0) | – | out of 4 tests | 0 |
| ARF2 727-859 (Arabidopsis thaliana, UniProt Q94JM3) | – | out of 2 tests | 0 |
| IAA26 (Arabidopsis thaliana, UniProt Q8LAL2) | – | out of 4 tests | 2 |
| IAA30 (Arabidopsis thaliana, UniProt Q9M1R4) | weak activation fusion | out of 4 tests | 2 |
| IAA33 (Arabidopsis thaliana, UniProt Q9FKM7) | – | out of 4 tests | 2 |
| IAA34 (Arabidopsis thaliana, UniProt Q9C5X0) | – | out of 4 tests | 3 |
| ARF4 660-788 (Arabidopsis thaliana, UniProt Q9ZTX9) | – | out of 4 tests | 0 |

Study 2
Target: NFIL3, bZIP domain (human)
Method: DHFR protein complementation
Matrix: yeast
Notes: single substitutions, most at no-binding floor
Baseline: wild-type JUN-FOS pair
Reading: higher = stronger binding
Parent: JUN, bZIP domain (human); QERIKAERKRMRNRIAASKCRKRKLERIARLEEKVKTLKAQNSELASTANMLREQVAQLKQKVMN; partner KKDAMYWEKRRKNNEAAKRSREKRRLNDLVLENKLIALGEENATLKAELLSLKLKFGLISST
| Variant | binding fitness |
| --- | --- |
| L52H | -1.52 natural log |
| R30L | -1.45 natural log |
| R30A | -1.3 natural log |
| S47D | -1.55 natural log |
| L52F | -1.4 natural log |
| V56R | -1.5 natural log |
| K34L | -1.5 natural log |
| A29R | -1.4 natural log |

Study 3
SMILES: CCCCN(CCCC)C(=O)CN1C[C@@H](c2cc(OC)c3c(c2)OCO3)[C@H](C(=O)O)[C@H]1CC(C)(C)CCC
Read-out: cell-free assay
Method: competition with immobilised ligand
Concentration: 1 µM
| target | remaining binding [%] |
| --- | --- |
| PIP4K2B (Homo sapiens, UniProt P78356) | 59.8 |
| EGFR (Homo sapiens, UniProt P00533) | 100 |
| MAP3K1 (Homo sapiens, UniProt Q13233) | 100 |
| PAK3 (Homo sapiens, UniProt O75914) | 89.4 |
| KDR (Homo sapiens, UniProt P35968) | 88.1 |
| Mast/stem cell growth factor receptor Kit, autoinhibited (KIT, Homo sapiens, UniProt P10721) | 94.9 |
| MAP3K10 (Homo sapiens, UniProt Q02779) | 65.4 |
| RIPK2 (Homo sapiens, UniProt O43353) | 100 |
| ERBB2 (Homo sapiens, UniProt P04626) | 92.1 |
| FGR (Homo sapiens, UniProt P09769) | 92.4 |
| CDK16 (Homo sapiens, UniProt Q00536) | 100 |
| GRK7 (Homo sapiens, UniProt Q8WTQ7) | 90.8 |
| MARK3 (Homo sapiens, UniProt P27448) | 93.7 |
| IRAK4 (Homo sapiens, UniProt Q9NWZ3) | 94.5 |
| SRMS (Homo sapiens, UniProt Q9H3Y6) | 90.6 |
| KIT (Homo sapiens, UniProt P10721, L576P) | 100 |

Mixed results
| SMILES | host | matrix | concentration | time | endpoint | value |
| --- | --- | --- | --- | --- | --- | --- |
| CCOc1cc(CNC(C)c2ccccc2)ccc1OCC(C)C (centres unmarked) | mouse | microsomes or S9 | 2 µM | 0.5 h | remaining compound | < 1% |
